Measurements pooled from the literature.
± marks the error that the study gave.

Structure (SMILES)	assay	system	conditions	Tmax [h]
O=C(/C=C/c1ccc(O)c2c1[C@H](C(=O)O)[C@@H](c1ccc(O)c(O)c1)O2)O[C@H](Cc1ccc(O)c(O)c1)C(=O)O	UPLC-MS/MS	Wistar rat, microcirculation dysfunction model, plasma	oral, 100 mg/kg Salvia miltiorrhiza stem-leaf extract FS	1.92 ± 1.63
CCOc1cc([C@@H](CS(C)(=O)=O)N2C(=O)c3cccc(NC(C)=O)c3C2=O)ccc1O[C@@H]1O[C@H](C(=O)O)[C@@H](O)[C@H](O)[C@H]1O	–	moderate renal impairment patients, plasma	oral, 30 mg of apremilast	10
CC(C)=CCC[C@](C)(O[C@@H]1O[C@H](CO)[C@@H](O)[C@H](O)[C@H]1O)[C@H]1CC[C@]2(C)[C@@H]1[C@H](O)C[C@@H]1[C@@]3(C)CC[C@H](O)C(C)(C)[C@@H]3[C@@H](O[C@@H]3O[C@H](CO)[C@@H](O)[C@H](O)[C@H]3O[C@@H]3O[C@@H](C)[C@H](O)[C@@H](O)[C@H]3O)C[C@]12C	–	Sprague Dawley rat, male, plasma	oral, 45 mg/kg, white ginseng extract	0.08 ± 0.02
O=C(O)C[C@H](O)C[C@H](O)/C=C/c1c(C2CC2)nc2ccccc2c1-c1ccc(F)cc1	–	male Sprague Dawley rat, control, plasma	oral, 2.5 mg/kg, median, together with: vehicle	0.83
CC(C)=CCC[C@](C)(O[C@@H]1O[C@H](CO[C@@H]2O[C@H](CO)[C@@H](O)[C@H](O)[C@H]2O)[C@@H](O)[C@H](O)[C@H]1O)[C@H]1CC[C@]2(C)[C@@H]1[C@H](O)C[C@@H]1[C@@]3(C)CC[C@H](O[C@@H]4O[C@H](CO)[C@@H](O)[C@H](O)[C@H]4O[C@@H]4O[C@H](CO)[C@@H](O)[C@H](O)[C@H]4O)C(C)(C)[C@@H]3CC[C@]12C	–	Sprague Dawley rats, plasma	oral, 100 mg/kg, control group sterile water	4.4 ± 1.52
Cn1nnc2c(C(N)=O)ncn2c1=O	–	male athymic rat, intracranial U87 glioma, tumour extracellular fluid	oral, 50 mg/kg, recovery-corrected microdialysis, median, together with: after cediranib	1.5
O=C(NC[C@H]1CN(c2ccc(N3CCOCC3=O)cc2)C(=O)O1)c1ccc(Cl)s1	–	Sprague-Dawley rat, male, plasma	oral, 10 mg/kg, together with: naringenin 10 mg/kg/day oral, 2 weeks	2.8 ± 0.45
CCN1CCN(c2ccc(Nc3cc(N(C)C(=O)Nc4c(Cl)c(OC)cc(OC)c4Cl)ncn3)cc2)CC1	–	Crl:WI(Han) rat, juvenile male, plasma	oral gavage, 0.1 mg/kg/day, postnatal day 17	3
O=C(/C=C/c1ccc(O)c(O)c1/C=C/c1ccc(O)c(O)c1)O[C@H](Cc1ccc(O)c(O)c1)C(=O)O	UPLC-MS/MS	Wistar rat, microcirculation dysfunction model, plasma	oral, 100 mg/kg Salvia miltiorrhiza stem-leaf extract FS	0.7 ± 0.71
CCCC[C@H](NC(C)=O)C(=O)N[C@H]1CCC(=O)NC[C@@H](C(=O)N[C@@H](Cc2c[nH]c3ccccc23)C(N)=O)NC(=O)[C@H](CCCNC(=N)N)NC(=O)[C@@H](Cc2ccccc2)NC(=O)[C@H](Cc2c[nH]cn2)NC1=O	–	CD Sprague Dawley rat, female, plasma	subcutaneous, 1.0 mg/kg daily, day 1	0.5
CS(=O)(=O)c1ccc(-c2cnc(N)c(-c3ccc(C(F)(F)F)nc3)c2)cc1	–	Sprague-Dawley rat, pregnant female, plasma	oral, 30 mg/kg/day, gestation day 17	8
O=C(O)Cc1ccccc1Nc1c(Cl)cccc1Cl	–	rat, plasma	oral, 10 mg/kg, together with: sesamin 10 mg/kg	0.09 ± 0.0567
Nc1nc(N)c2nc(CNc3ccc(C(=O)N[C@@H](CCC(=O)O)C(=O)O)cc3)cnc2n1	–	female Lewis rats, plasma	subcutaneous, 500 nmol/kg of parent drug	~1
COc1cccc(-c2n[nH]c(SCc3ccccn3)n2)c1OC	–	Sprague-Dawley rat, both sexes, plasma	oral, diet, 10 mg/kg/day, day 7	6
Cc1cc(-c2cc(OC(=O)c3ccccc3)ccc2Cl)cc2nnc(Nc3ccc(OCCN4CCCC4)cc3)nc12	–	Long Evans rat, retina	topical, 1%	1
O=C(O)/C=C/c1ccc(O)c(O)c1	UPLC-MS/MS	Wistar rat, microcirculation dysfunction model, plasma	oral, 100 mg/kg Salvia miltiorrhiza stem-leaf extract FT	0.67 ± 0.37
Cc1nc(Nc2ncc(C(=O)Nc3c(C)cccc3Cl)s2)cc(N2CCN(CCO)CC2)n1	–	Sprague-Dawley rat, female, plasma	intraperitoneal, 5 mg/kg, together with: rosiglitazone co-dosed	0.62 ± 0.41
CC(C)=CCC[C@](C)(O[C@@H]1O[C@H](CO[C@@H]2O[C@H](CO)[C@@H](O)[C@H](O)[C@H]2O)[C@@H](O)[C@H](O)[C@H]1O)[C@H]1CC[C@]2(C)[C@@H]1[C@H](O)C[C@@H]1[C@@]3(C)CC[C@H](O[C@@H]4O[C@H](CO)[C@@H](O)[C@H](O)[C@H]4O[C@@H]4O[C@H](CO)[C@@H](O)[C@H](O)[C@H]4O)C(C)(C)[C@@H]3CC[C@]12C	–	Sprague Dawley rat, male, plasma	oral, 86 mg/kg, frozen ginseng extract	8 ± 1.2
CC(C)=CCC[C@](C)(O[C@@H]1O[C@H](CO)[C@@H](O)[C@H](O)[C@H]1O)[C@H]1CC[C@]2(C)[C@@H]1[C@H](O)C[C@@H]1[C@@]3(C)CC[C@H](O[C@@H]4O[C@H](CO)[C@@H](O)[C@H](O)[C@H]4O[C@@H]4O[C@H](CO)[C@@H](O)[C@H](O)[C@H]4O)C(C)(C)[C@@H]3CC[C@]12C	–	Sprague-Dawley rat, plasma	oral, 200 mg/kg ginseng extract, control diet 2 weeks before dosing	9.6 ± 5.3
C[C@@H]1O[C@@H](OC[C@H]2O[C@@H](Oc3c(-c4ccc(O)c(O)c4)oc4cc(O)cc(O)c4c3=O)[C@H](O)[C@@H](O)[C@@H]2O)[C@H](O)[C@H](O)[C@H]1O	UPLC-MS/MS	Wistar rat, microcirculation dysfunction model, plasma	oral, 100 mg/kg Salvia miltiorrhiza stem-leaf extract FT	1.31 ± 1.35
CC(C)=CCC[C@](C)(O[C@@H]1O[C@H](CO)[C@@H](O)[C@H](O)[C@H]1O)[C@H]1CC[C@]2(C)[C@@H]1[C@H](O)C[C@@H]1[C@@]3(C)CC[C@H](O[C@@H]4O[C@H](CO)[C@@H](O)[C@H](O)[C@H]4O[C@@H]4O[C@H](CO)[C@@H](O)[C@H](O)[C@H]4O)C(C)(C)[C@@H]3CC[C@]12C	–	Sprague Dawley rat, male, plasma	oral, 42 mg/kg, mixture of pure ginsenosides	0.25 ± 0.04
CCN(CC)Cc1cc(Nc2ccnc3cc(Cl)ccc23)ccc1O	–	rat, Wistar, male, plasma	oral, 60 mg/kg	3.8 ± 1.35
CC(C)(C)NC(=O)[C@@H]1C[C@@H]2CCCC[C@@H]2CN1C[C@@H](O)[C@H](Cc1ccccc1)NC(=O)[C@H](CC(N)=O)NC(=O)c1ccc2ccccc2n1	–	rat, plasma	oral, 30 mg/kg, together with: resveratrol 20 mg/kg oral	~0.25
Cc1nc2cccc(OCC(C)(C)C(=O)NC(C)C)c2c(N)c1C(=O)O	–	female Sprague-Dawley rat, plasma	dietary, 30 mg/kg/day, day 7	0
CCc1oc2cc(OC)ccc2c1C(=O)c1cc(Br)c(O)c(Br)c1	–	male Sprague-Dawley rat, whole blood	oral, 16.3 mg/kg, CMC vehicle	~7
CC(C)=CCC[C@](C)(O[C@@H]1O[C@H](CO)[C@@H](O)[C@H](O)[C@H]1O)[C@H]1CC[C@]2(C)[C@@H]1[C@H](O)C[C@@H]1[C@@]3(C)CC[C@H](O)C(C)(C)[C@@H]3[C@@H](O[C@@H]3O[C@H](CO)[C@@H](O)[C@H](O)[C@H]3O)C[C@]12C	–	Sprague Dawley rat, male, plasma	oral, 25 mg/kg, red ginseng extract	12.8 ± 2.1
O=C(/C=C/c1ccc(O)c(O)c1)O[C@H](Cc1ccc(O)c(O)c1)C(=O)O	UPLC-MS/MS	Wistar rat, microcirculation dysfunction model, plasma	oral, 100 mg/kg Salvia miltiorrhiza stem-leaf extract FT	0.42 ± 0.33
C=CC(=O)Nc1cc(Nc2nccc(-c3cn(C)c4ccccc34)n2)c(OC)cc1N(C)CCN(C)C	–	Sprague-Dawley rat, male, plasma	oral, 10 mg/kg	4.6 ± 2.41

For quick reference, copied from above:
Structure (SMILES)	assay	system	conditions	Tmax [h]
O=C(O)/C=C/c1ccc(O)c(O)c1	UPLC-MS/MS	Wistar rat, microcirculation dysfunction model, plasma	oral, 100 mg/kg Salvia miltiorrhiza stem-leaf extract FT	0.67 ± 0.37
CC(C)=CCC[C@](C)(O[C@@H]1O[C@H](CO[C@@H]2O[C@H](CO)[C@@H](O)[C@H](O)[C@H]2O)[C@@H](O)[C@H](O)[C@H]1O)[C@H]1CC[C@]2(C)[C@@H]1[C@H](O)C[C@@H]1[C@@]3(C)CC[C@H](O[C@@H]4O[C@H](CO)[C@@H](O)[C@H](O)[C@H]4O[C@@H]4O[C@H](CO)[C@@H](O)[C@H](O)[C@H]4O)C(C)(C)[C@@H]3CC[C@]12C	–	Sprague Dawley rats, plasma	oral, 100 mg/kg, control group sterile water	4.4 ± 1.52
CCCC[C@H](NC(C)=O)C(=O)N[C@H]1CCC(=O)NC[C@@H](C(=O)N[C@@H](Cc2c[nH]c3ccccc23)C(N)=O)NC(=O)[C@H](CCCNC(=N)N)NC(=O)[C@@H](Cc2ccccc2)NC(=O)[C@H](Cc2c[nH]cn2)NC1=O	–	CD Sprague Dawley rat, female, plasma	subcutaneous, 1.0 mg/kg daily, day 1	0.5
Cn1nnc2c(C(N)=O)ncn2c1=O	–	male athymic rat, intracranial U87 glioma, tumour extracellular fluid	oral, 50 mg/kg, recovery-corrected microdialysis, median, together with: after cediranib	1.5
